Literature values, collected from citations in different studies.
Each numbered part shows a few of the values that one paper quotes.
Chain of UniProt Q9HBX9 (whole entry, looked up): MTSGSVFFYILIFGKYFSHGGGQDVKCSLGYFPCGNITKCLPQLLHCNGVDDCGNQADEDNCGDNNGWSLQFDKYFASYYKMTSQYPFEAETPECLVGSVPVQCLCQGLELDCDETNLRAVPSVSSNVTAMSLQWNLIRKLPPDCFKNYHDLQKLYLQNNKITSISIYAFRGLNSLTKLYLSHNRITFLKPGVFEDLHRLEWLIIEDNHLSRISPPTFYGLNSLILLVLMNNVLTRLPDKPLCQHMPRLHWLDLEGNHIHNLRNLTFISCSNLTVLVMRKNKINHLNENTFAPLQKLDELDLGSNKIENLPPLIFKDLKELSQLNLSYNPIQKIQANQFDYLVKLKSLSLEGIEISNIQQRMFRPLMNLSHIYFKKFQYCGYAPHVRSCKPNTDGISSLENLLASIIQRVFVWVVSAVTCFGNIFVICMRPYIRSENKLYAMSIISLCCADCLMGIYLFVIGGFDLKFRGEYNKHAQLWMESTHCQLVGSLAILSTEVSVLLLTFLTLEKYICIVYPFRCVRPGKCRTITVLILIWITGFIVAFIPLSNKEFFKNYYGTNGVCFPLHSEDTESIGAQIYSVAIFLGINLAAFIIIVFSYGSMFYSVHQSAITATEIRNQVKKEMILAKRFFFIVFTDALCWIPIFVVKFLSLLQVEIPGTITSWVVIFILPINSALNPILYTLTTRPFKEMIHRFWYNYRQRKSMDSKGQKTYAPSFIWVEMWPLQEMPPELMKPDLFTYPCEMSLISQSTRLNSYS

Block 1 — organism: Bacillus subtilis; form: peptide
Sequence | MIC [µM]
MGWWFPPKTGNAGKAKFKAAAAKWGGLFLAAAKWEANGEWGGFPKGY | 3.1
MWFDRKKFFWPGVCLFLFLFFPRKRFYKFGPEKVFSSRKKYFARKCKCL | 6.3
MEAFKKPRPLFLVKLLTRFLEARAGLGSYRIEFIFKKFGVVKFSSLLR | 0.8
MNTTSNMIHRAVQQKRISFRAAKLTVLFLFKRRLLRRLLRHREN | 0.4
MKQPSKTHKTFKYFLILFLKSVKKVAGFKKKKHYHWRRSYKESCFRKRT | 1.6
MCFPRRSKSVKVKKGGCLRLFLIFFKTFCTKAKTKEIKKKGTKIKIVR | 3.1

Single results of other studies
B1: CCL1; sequence looked up; chain KSMQVPFSRCCFSFAEQEIPLRAILCYRNTSSICSNEGLIFKLKRGKEACALDTVGWVQRHRKMLRHCPSKRK
Molecule | tested on | assay | system | setting | quantity | result
insulin icodec | – | – | White patients with type 1 diabetes, serum | dose not given, geometric mean | dose-normalised AUCτ at steady state | 12500 (nmol·h/L)/(U/kg)
B1 (CCL1) | CCR8 G206A mutant | IP accumulation, agonist | – | – | EC50 | 67 nM
LAGGGSASSSAHAAAFR | – | isocratic RP-HPLC, C18 column | peptide, water/acetonitrile, 0.1% TFA | 25 °C | retention coefficient S | 23.5
teicoplanin | – | – | healthy human subjects | intravenous, dose not given | Cmax | 59 µM
pegcetacoplan | – | – | human | 1440 mg single dose, arithmetic mean | AUC(0-inf) | 98000 µg·h/mL
relaxin-2 | Relaxin receptor 1 (RXFP1, Homo sapiens, UniProt Q9HBX9) | cAMP production, agonist | – | – | EC50 | 0.02 nM

Some of these lines once more (block 1):
Sequence | MIC [µM]
MNTTSNMIHRAVQQKRISFRAAKLTVLFLFKRRLLRRLLRHREN | 0.4
MKQPSKTHKTFKYFLILFLKSVKKVAGFKKKKHYHWRRSYKESCFRKRT | 1.6
